Measurements collected from several papers.
± gives the spread as reported.
Method: steady-state kinetics
B1: genB3 A452T/L401C/Q310N (Micromonospora echinospora, UniProt Q2MG50); chain MDSANLTNRGLVERARRVTAAENYDIGTRFSAMIQSGEGAWLTDVEGNRYVDLTASSGTIILGHRNQAVTEAITRQIRDFGTAFASTLSVPRVELAERLCERYECAEKVVFHKTGSEGTAMAARLARAATGRELILSCGYHGWHEWQLAGETFGYQQTTGVVGFGYNEKALAKMLEAFGNEVAGVLISPELLYFDVEFYQRMYALCARYDVPFMMDEVYTGFRAGPKGVHGLGVPADVVVVSKGLANGHSLAAVMGRRDIIDAYDVSGINGTYTREVPPMAAAMAVLDVLDTPGVYEHAEAMGRRLADGMREILTGEGIPNWVGGPALMFDTVLPNDDLGWEIYKTAHDFGVYFEDSGTQCVTTAFDEAAVDHALTAFRKATRQVIADRPDIAPTSGGELTEERKLDFAEETFGGLLRDDERTNALIDETIEKVVNRDRSIKPVLIPAQN
B2: DTYMK (Homo sapiens, UniProt P23919); chain MAARRGALIVLEGVDRAGKSTQSRKLVEALCAAGHRAELLRFPERSTEIGKLLSSYLQKKSDVEDHSVHLLFSANRWEQVPLIKEKLSQGVTLVVDRYAFSGVAFTGAKENFSLDWCKQPDVGLPKPDLVLFLQLQLADAAKRGAFGHERYENGAFQERALRCFHQLMKDTTLNWKMVDASKSIEAVHEDIRVLSEDAIRTATEKPLGELWK
B3: PPIP5K2 (Homo sapiens, UniProt O43314); chain MSEAPRFFVGPEDTEINPGNYRHFFHHADEDDEEEDDSPPERQIVVGICSMAKKSKSKPMKEILERISLFKYITVVVFEEEVILNEPVENWPLCDCLISFHSKGFPLDKAVAYAKLRNPFVINDLNMQYLIQDRREVYSILQAEGILLPRYAILNRDPNNPKECNLIEGEDHVEVNGEVFQKPFVEKPVSAEDHNVYIYYPTSAGGGSQRLFRKIGSRSSVYSPESNVRKTGSYIYEEFMPTDGTDVKVYTVGPDYAHAEARKSPALDGKVERDSEGKEVRYPVILNAREKLIAWKVCLAFKQTVCGFDLLRANGQSYVCDVNGFSFVKNSMKYYDDCAKILGNIVMRELAPQFHIPWSIPLEAED
B4: protein (Thermotoga neapolitana, UniProt B9K712); chain MKMLYDLAKKRKTVRRFKKEKPPLEDLIYSLKVANEAPSGMNAQPWRFLIVEDEKLKGQIRRVCERSEKTFYENVRGRLKEWLDEKRFTWRKPFLKEAPYLLLVFSEKSAPYSRESVWLAVGYLLLALEEKGLGSVPYTPPDFREVEKLVNTPSELRLEVILPVGYPDDPKPKYPRNEVIVRYNTF
B5: FNO G29S (Thermobifida fusca, UniProt Q47RA9); chain MIMIMASKSSPHDLPDVSGLSIAVLGGTSDQGRGLARRFAMAGHEVILGSRSAERAQAVAAELGEGLPVRGMDNAGAAEAGDVVIVAVPWDGHRALLESLKDVLAGKIVVDCVNPLGFDKRGAYALPVEEGSAAEQAAAILPDSRVVAAFHHVSAVLLLDPEVEKVDLDVLVLGDDREATDVVRALAARIPGVRGVYGGRLRNAHQVEAFTANLISINRRYKAHAGIRITDI
B6: enzyme (UniProt Q53796); chain MTEHPRAHTAHLRTARLELTPLDPAADARHLHHAYGDEEVMRWWTRPACADPAETERYLTSCAAAPGARLWTIRAPDGTVPGMAGLLGGTDVPGLTWLLRRDSWGHGYATEAAAAVVGHALEDGGLDRVEAWIEAGNRRSLAVAARVGLTERARLAQHYPHRPGPHEMVVLGKARAEEPLTTLAVITELPVRDVAATLRLVEAALGARTAFAIGDPPEFAEAALTPWSAGPRFRLAAVPGPGPVEPVRLHLDAAGTADSLHRRAVDAGARVDGPPVRRPWGRSEFVITLPEGHELTVSAPV
B7: AK1 (Homo sapiens, UniProt P00568); chain MEEKLKKTKIIFVVGGPGSGKGTQCEKIVQKYGYTHLSTGDLLRSEVSSGSARGKKLSEIMEKGQLVPLETVLDMLRDAMVAKVNTSKGFLIDGYPREVQQGEEFERRIGQPTLLLYVDAGPETMTQRLLKRGETSGRVDDNEETIKKRLETYYKATEPVIAFYEKRGIVRKVNAEGSVDSVFSQVCTHLDALK
Chain of UniProt P10635 (whole entry, looked up): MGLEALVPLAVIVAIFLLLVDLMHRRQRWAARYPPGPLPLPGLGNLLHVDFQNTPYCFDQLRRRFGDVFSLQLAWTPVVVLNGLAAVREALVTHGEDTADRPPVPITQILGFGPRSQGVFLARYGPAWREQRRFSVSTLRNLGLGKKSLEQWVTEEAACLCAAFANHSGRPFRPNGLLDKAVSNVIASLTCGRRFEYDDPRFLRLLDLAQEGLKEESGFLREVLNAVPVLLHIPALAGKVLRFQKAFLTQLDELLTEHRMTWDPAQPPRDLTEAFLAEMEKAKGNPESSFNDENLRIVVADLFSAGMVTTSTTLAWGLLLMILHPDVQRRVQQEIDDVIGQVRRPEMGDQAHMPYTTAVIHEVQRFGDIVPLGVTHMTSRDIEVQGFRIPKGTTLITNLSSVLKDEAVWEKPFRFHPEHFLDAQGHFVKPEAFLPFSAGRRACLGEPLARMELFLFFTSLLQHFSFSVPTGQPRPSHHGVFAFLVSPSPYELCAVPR
Chain of UniProt Q9ZGI2 (whole entry, looked up): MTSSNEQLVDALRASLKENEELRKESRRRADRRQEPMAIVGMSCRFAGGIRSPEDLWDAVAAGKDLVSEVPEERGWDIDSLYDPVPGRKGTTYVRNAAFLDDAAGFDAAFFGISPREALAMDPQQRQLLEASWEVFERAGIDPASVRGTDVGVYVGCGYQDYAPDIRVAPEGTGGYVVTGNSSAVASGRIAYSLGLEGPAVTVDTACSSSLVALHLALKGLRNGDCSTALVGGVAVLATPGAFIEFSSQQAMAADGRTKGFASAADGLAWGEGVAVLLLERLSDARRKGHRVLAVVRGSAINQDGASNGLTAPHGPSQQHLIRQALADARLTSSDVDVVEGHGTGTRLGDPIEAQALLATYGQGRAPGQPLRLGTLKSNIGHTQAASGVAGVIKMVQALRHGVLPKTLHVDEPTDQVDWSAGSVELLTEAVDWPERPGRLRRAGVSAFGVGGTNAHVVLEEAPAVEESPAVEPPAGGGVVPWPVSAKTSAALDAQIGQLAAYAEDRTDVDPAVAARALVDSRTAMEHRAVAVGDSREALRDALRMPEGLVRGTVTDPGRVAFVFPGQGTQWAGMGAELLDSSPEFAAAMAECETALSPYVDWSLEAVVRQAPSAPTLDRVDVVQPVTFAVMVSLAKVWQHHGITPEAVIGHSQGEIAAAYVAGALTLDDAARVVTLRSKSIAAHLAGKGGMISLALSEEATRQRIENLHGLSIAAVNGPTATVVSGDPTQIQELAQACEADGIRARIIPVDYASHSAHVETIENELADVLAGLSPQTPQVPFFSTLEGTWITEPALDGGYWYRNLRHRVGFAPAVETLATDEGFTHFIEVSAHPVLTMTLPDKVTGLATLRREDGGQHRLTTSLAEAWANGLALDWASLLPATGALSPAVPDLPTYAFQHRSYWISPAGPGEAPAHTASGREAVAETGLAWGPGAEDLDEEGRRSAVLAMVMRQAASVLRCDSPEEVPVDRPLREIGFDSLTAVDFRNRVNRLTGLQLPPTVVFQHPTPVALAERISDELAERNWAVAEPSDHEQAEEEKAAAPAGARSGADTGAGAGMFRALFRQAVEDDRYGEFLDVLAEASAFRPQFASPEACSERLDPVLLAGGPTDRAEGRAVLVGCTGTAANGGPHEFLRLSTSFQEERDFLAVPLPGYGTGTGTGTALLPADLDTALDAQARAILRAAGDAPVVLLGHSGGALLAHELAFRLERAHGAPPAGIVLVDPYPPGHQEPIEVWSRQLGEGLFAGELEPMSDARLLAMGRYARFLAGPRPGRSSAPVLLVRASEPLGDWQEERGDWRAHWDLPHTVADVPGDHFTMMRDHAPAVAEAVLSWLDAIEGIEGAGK

enzyme (Streptomyces venezuelae, UniProt Q9ZGI2)
kcat/Km (CC[C@H](O)[C@H](C)/C=C/C(=O)[C@H](C)C[C@H](C)[C@H](OC)[C@@H](C)C(=O)SCCNC(C)=O): 138 ± 2.67 M⁻¹ s⁻¹

CYP2D6 (Homo sapiens, UniProt P10635)
kcat/Km (CC(C)(C)NC(CO)c1cc(Cl)c(N)c(C(F)(F)F)c1; pH 7.4, 37 °C, not purified): 76.2 M⁻¹ s⁻¹

B1 (genB3 A452T/L401C/Q310N)
kcat/Km (CN[C@@H]1[C@@H](O)[C@@H](O[C@@H]2[C@@H](O)[C@H](O[C@H]3O[C@H](CN)[C@@H](O)[C@H](OP(=O)(O)O)[C@H]3N)[C@@H](N)C[C@H]2N)OC[C@]1(C)O; 30 °C): 45.5 M⁻¹ s⁻¹

B2 (DTYMK)
kcat/Km (Cc1cn([C@H]2C[C@H](O)[C@@H](COP(=O)(O)O)O2)c(=O)[nH]c1=O; with: ATP 2 mM, Mg2+ 2 mM): 150000 M⁻¹ s⁻¹

curN (Lyngbya majuscula, UniProt Q6DND9)
kcat/Km (CC1=[N+]2C(=C(CCl)c3ccc(C)n3[B-]2(F)F)C=C1; pH 8, 30 °C): 1.26e+07 M⁻¹ s⁻¹

B3 (PPIP5K2)
kcat/Km (O=P(O)(O)O[C@H]1[C@@H](OP(=O)(O)O)[C@H](OP(=O)(O)O)[C@@H](OP(=O)(O)OP(=O)(O)O)[C@H](OP(=O)(O)O)[C@H]1OP(=O)(O)O): 2.2e+06 M⁻¹ s⁻¹

enzyme (Actinoalloteichus caeruleus, UniProt M1F4W9)
kcat/Km (CC(C)C[C@H](NC(=O)c1cc(O)cc(-c2ccccn2)n1)C(=O)O; pH 8, 30 °C): 8440 M⁻¹ s⁻¹

B4 (protein)
kcat/Km (N[C@@H](Cc1ccc(O)c(Cl)c1)C(=O)O; pH 7.4, 60 °C): 10000 ± 5000 M⁻¹ s⁻¹

B5 (FNO G29S)
kcat/Km (NC(=O)C[n+]1cccc(C(N)=O)c1; pH 8, 25 °C, with: F420H2 40 µM): 8.8 ± 1.3 M⁻¹ s⁻¹

B6 (enzyme)
kcat/Km (Cc1c(N)nc([C@H](CC(N)=O)NC[C@H](N)C(N)=O)nc1C(=O)N[C@H](C(=O)N[C@H](C)[C@@H](O)[C@H](C)C(=O)N[C@H](C(=O)NCCc1nc(-c2nc(C(=O)NCCCCNC(=N)N)cs2)cs1)[C@@H](C)O)[C@@H](O[C@@H]1O[C@@H](CO)[C@@H](O)[C@H](O)[C@@H]1O[C@H]1O[C@H](CO)[C@@H](O)[C@H](OC(N)=O)[C@@H]1O)c1c[nH]cn1; pH 7.5, 30 °C): 13000 M⁻¹ s⁻¹

B7 (AK1)
kcat/Km (Nc1ccn(C2OC(COP(=O)(O)O)C(O)C2O)c(=O)n1): 10000 M⁻¹ s⁻¹

A few entries again:
B6 (enzyme)
kcat/Km (Cc1c(N)nc([C@H](CC(N)=O)NC[C@H](N)C(N)=O)nc1C(=O)N[C@H](C(=O)N[C@H](C)[C@@H](O)[C@H](C)C(=O)N[C@H](C(=O)NCCc1nc(-c2nc(C(=O)NCCCCNC(=N)N)cs2)cs1)[C@@H](C)O)[C@@H](O[C@@H]1O[C@@H](CO)[C@@H](O)[C@H](O)[C@@H]1O[C@H]1O[C@H](CO)[C@@H](O)[C@H](OC(N)=O)[C@@H]1O)c1c[nH]cn1; pH 7.5, 30 °C): 13000 M⁻¹ s⁻¹
